Results gathered from unrelated publications.
Compare with care: the assays were run in different laboratories. Several values in a cell are separate wells, animals, samples, runs or records.
CDK13: Cyclin-dependent kinase 13 (CDK13, Homo sapiens, UniProt Q14004)
CDK13 with cyclin K: Cyclin-dependent kinase 13, with cyclin K (CDK13, Homo sapiens, UniProt Q14004)

target	assay	test system	setting	how to read	endpoint	value	Compound
CDK13	cell-free assay		0.1 µM		remaining signal	76%	Cc1cnc2nc1Nc1cccc(c1)COC/C=C/COCc1cc(ccc1OCCN1CCOCC1)N2
CDK13	binding, competition with immobilised ligand		1 µM		remaining binding	100%	CNC(=O)C1CCN(c2cc(C)c(F)cc2NC(=O)c2ccc(-c3cc(O)ccc3C)c(C)c2)CC1
CDK13	KINOMEscan		1 µM	reference: DMSO control	remaining binding	92%	C=CC(=O)N1CCc2ccc(-n3c(=O)ccc4cnc5ccc(-c6cnn(C)c6)cc5c43)cc21
CDK13 with cyclin K	enzyme activity, inhibitor		1 µM		inhibition	-15%	CN1CC[C@@H](COc2cnc(C#N)cc2-c2ccn3nc(NC(=O)C4CC4)cc3c2)C1
CDK13	inhibitor		1 µM, CDC2L5	reference: control	remaining activity	100%	COc1cc(Nc2nc(C)cc(-c3cnn4nc(OC)ccc34)n2)cc(C(F)(F)F)c1
CDK13	kinobead competition pulldown	HEK293/HCT116 lysate mixture	10 µM, 1 h, 4 °C	lower = stronger competition	log2 LFQ intensity	21.9 and 20.3 and 19.8 and 19.2	N[C@H]1CC[C@H](Nc2nccc(-c3cccnc3Oc3ccc(NC(=O)NC4CC4)c4ccccc34)n2)CC1
CDK13 with cyclin K	enzyme activity, inhibitor		1 µM		activity vs control	110%	CNC(=O)C[C@H](Cc1ccc(C#N)cc1)NC(=O)c1cc(-c2ccc(CN[C@H](C)c3ccc(C)cc3)o2)ccc1Cl
CDK13 with cyclin K	enzyme activity, inhibitor		10 µM		remaining activity	89%	CN1C[C@@H](c2c[nH]c3cc(Br)ccc23)NC[C@@H]1c1c[nH]c2cc(Br)ccc12
CDK13			0.1 µM		remaining activity	95%	CNC1C[S+]2CC[S+]3CC[S+](C1)[Ru-4]321([N]=C=S)[n]2c3ccc(OC)cc3c3c4c(c5cc(F)c[n+]1c5c32)C(=O)NC4=O (centres unmarked)
CDK13	binding, competition with immobilised ligand		1 µM		remaining binding	100%	Nc1ncc2c(n1)-c1c([nH]c3ccc(C4=CCOCC4)cc13)CCC2
CDK13	cell-free assay, competition with immobilised ligand		10 µM		remaining binding	67%	CC(C)=CC1OC(C)(C)C2C=C3C(=O)C(Cl)=CC(O)C3C3C(O)C4OC4C(=O)C132 (centres unmarked)
CDK13	cell-free assay, competition with immobilised ligand		1 µM		remaining binding	73%	C=CC(=O)N1CCCC(n2c(=O)c3ncccc3n(Cc3ccc(Oc4ccccc4)cc3)c2=O)C1 (centres unmarked)
CDK13	binding, competition with immobilised ligand		3 µM		remaining binding	95%	COc1c(Cl)cccc1Nc1c(-c2ccncc2C#C[C@@]2(C)CCCN2C(=O)/C=C/CN(C)C)[nH]c2c1C(=O)NCC2
CDK13 with cyclin K	cell-free assay, inhibitor		1 µM		inhibition	5.5%	C=CC(=O)N1Cc2nc(-c3cc(-c4cc(Cl)cnc4Cl)c(F)cc3F)n(-c3ccncn3)c2C1
CDK13	cell-free assay, competition with immobilised ligand		1 µM		remaining binding	100%	Cc1ccc(-c2c(/C=C(\C#N)C(=O)NC(C)C)n(CCCO)c3ncnc(N)c23)cc1
CDK13 with cyclin K	kinase activity		0.1 µM, added: ATP at Km		inhibition	5.7%	CCn1cc(C(=O)O)c(=O)c2c(N)c(F)c(NC3CCCCC3)cc21
CDK13	binding, competition with immobilised ligand		1 µM		remaining binding	98%	COc1cc(Nc2nccc(-c3cnn4nc(OC)ccc34)n2)cc(C(F)(F)F)c1
